Measured values collected from several papers.
A part holds a random share of what one study measured.

Series 1
Target: Histone acetyltransferase KAT6A, winged helix 1, GST fusion (KAT6A, Homo sapiens, UniProt Q92794, residues 1-85)
Technique: protein binding microarray
Molecule type: double-stranded DNA, one strand shown
Medium: in vitro
Concentration: not given
Setting: 8-mer, flanks averaged, mean of 2 arrays, mostly near background
Relative to: not given
Direction: higher = stronger binding
Measurement: E-score
Target sequence (chain): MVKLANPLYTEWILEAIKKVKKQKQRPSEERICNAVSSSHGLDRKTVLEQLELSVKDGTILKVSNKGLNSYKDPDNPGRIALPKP
CACCAGGC: -0.164
AGGAGTGC: -0.017
AACAAGCC: -0.0664
CATAACCA: -0.132
AGGCACTA: -0.0954
CCTTATGC: -0.0809
ACCCTAGC: -0.0824
AGTCCCAT: -0.0863
CGACCTTA: 0.043
CACGTTAC: 0.0296
CCGCTGAC: 0.289
AACGTCGG: 0.0984
AAGGCAGG: -0.0901
ACCCGCTC: 0.361
ATCCTGAA: -0.126
GGTCATAC: 0.142
CAATTAGG: -0.168

Series 2
Target: Centromere-binding protein 1, full length, N-terminal tag (CBF1, Saccharomyces cerevisiae, UniProt P17106, residues 1-351)
Sequence of UniProt P17106 (whole entry, looked up): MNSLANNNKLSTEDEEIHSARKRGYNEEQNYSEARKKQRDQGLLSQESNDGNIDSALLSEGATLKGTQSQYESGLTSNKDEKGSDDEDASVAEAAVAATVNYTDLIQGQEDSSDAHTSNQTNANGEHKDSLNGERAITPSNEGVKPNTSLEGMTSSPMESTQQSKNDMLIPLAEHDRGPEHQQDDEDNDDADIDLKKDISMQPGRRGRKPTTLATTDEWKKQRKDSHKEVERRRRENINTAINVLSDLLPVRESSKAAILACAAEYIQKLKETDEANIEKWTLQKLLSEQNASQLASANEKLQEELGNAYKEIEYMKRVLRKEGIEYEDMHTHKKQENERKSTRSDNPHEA
Technique: protein-binding microarray
Molecule type: double-stranded DNA, one strand shown
Medium: in vitro
Concentration: 0.8 µM
Setting: whole 60-bp probe, no competitor
Direction: higher = stronger binding
Measurement: fluorescence intensity
GAAATATACCCGAATCAGGAGAAACAAAGGCGATAGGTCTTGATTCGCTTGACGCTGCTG: 535 a.u.
CTATTATGTGGGTTAAACGTGGGAGGAGAACTATTCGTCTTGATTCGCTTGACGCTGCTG: 532 a.u.
CTAAGCCAGATCCCGCTCGTGGGCGTGTTCATTTTCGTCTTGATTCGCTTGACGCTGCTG: 587 a.u.
GAACTTCTAGTCGAGCACATGGTCAAAATAGTCTAGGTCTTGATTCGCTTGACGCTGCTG: 1490 a.u.
TGTACGAAGCTATTACACGAGATTATAGTAGTTAGGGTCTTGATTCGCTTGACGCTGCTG: 577 a.u.
GAAGAAACCCGTGGGCACGTGGCTGTTATATTTTAGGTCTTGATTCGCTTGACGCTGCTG: 9550 a.u.
CTAAACAAGAAGCAACAGCTGAGATATTTGTTTTTCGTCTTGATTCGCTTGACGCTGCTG: 499 a.u.
CCTAACTACTATAGTCGCATGCCATAGCTTCGTACAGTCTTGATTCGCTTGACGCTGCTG: 512 a.u.
CTATAATGTGTATATAACGTGGTCTTAAATTATTTCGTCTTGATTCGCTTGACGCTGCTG: 997 a.u.
GAAACAACAAGGCATCACCAGCTATAGATAATCTAGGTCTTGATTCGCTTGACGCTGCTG: 511 a.u.
GAAGTCACCTCCAGGTGATTTGCTGTCTTTATGTAGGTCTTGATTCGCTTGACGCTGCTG: 520 a.u.
CCTAACTACTATAATAAGCTGATATAGCTTCGTACAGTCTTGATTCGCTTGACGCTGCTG: 520 a.u.
CTAATGAATCTAATAAACGTGGCTTACGTAACATTCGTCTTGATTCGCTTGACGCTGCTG: 548 a.u.
CTAGTTTTTAATAATTGTGATCACAATATAGCTTTCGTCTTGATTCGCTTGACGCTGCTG: 1020 a.u.
GAAGTGTGGAGGATCCATGTGGTTTCGTTAGCGTAGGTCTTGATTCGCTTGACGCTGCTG: 531 a.u.
GAAGATAATGTTTGTGACTTTTGTTTCAAATGCTAGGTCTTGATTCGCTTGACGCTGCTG: 531 a.u.
CCTAACTACTATAATCACGTATTATAGCTTCGTACAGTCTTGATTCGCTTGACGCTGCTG: 662 a.u.
GAACAAAATGTAACCTACATCATGCGTAGGCTTTAGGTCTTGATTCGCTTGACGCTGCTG: 543 a.u.
GAACGTTTGGGGCATGGCGTGTCGCCTAGAAGGTAGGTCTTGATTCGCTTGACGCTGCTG: 519 a.u.
CCTAACTACTATATACATGTGAGATAGCTTCGTACAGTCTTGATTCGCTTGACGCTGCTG: 643 a.u.
GAAAGACTCATATCCTTCGTGATTAGTTTCTTTTAGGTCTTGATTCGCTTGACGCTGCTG: 541 a.u.
TGTACGAAGCTATAGCACGACCATATAGTAGTTAGGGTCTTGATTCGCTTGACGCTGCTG: 516 a.u.
CTACATAGAATTGTTCACGTGGTCTAAATATGTTTCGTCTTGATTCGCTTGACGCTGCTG: 7830 a.u.

Series 3
Target: Ras GTPase-activating protein-binding protein 1, C-terminal RGG region (G3BP1, Homo sapiens, UniProt Q13283)
Sequence of UniProt Q13283 (whole entry, looked up): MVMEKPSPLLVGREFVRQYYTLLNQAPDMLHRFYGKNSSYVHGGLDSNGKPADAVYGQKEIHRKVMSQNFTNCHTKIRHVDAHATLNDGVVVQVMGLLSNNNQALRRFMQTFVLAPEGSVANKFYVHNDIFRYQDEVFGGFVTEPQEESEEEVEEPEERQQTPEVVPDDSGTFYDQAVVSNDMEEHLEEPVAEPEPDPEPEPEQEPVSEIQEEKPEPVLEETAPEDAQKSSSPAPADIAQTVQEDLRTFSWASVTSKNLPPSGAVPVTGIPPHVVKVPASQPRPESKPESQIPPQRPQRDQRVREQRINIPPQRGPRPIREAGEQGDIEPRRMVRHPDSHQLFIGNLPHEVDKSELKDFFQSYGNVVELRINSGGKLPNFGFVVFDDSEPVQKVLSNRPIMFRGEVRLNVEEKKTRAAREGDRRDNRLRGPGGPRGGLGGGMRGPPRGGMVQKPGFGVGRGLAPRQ
Technique: RNA Bind-n-Seq
Molecule type: RNA
Medium: in vitro
Concentration: 1 µM
Setting: whole 134-nt RNA, ends assumed
With: 150 mM KCl
Relative to: input library
Direction: higher = stronger binding
Measurement: log2 enrichment
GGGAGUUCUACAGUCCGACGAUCAAGUCCUGUGCUACACAUCGUAUGUACCGAAUCGGGUUUUUUUGGGAGGGAAAGGGAAAGUAUUAUGUUACGCCGUUCGGAUCUGCACUUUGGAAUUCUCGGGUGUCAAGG: 0.814
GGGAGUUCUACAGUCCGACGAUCUCAAGUCCUGUGCUACACAUCGUAUGUACCGAAUCGGGCCCGGCCCGGGGCCCGGAAAGUAUUAUGUUACGCCGUUCGGAUCUGCACUUCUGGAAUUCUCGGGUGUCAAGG: -1.61
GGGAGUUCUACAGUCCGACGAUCAGUCCUGUGCUACACAUCGUAUGUACCGAAUCGGGAAAAAGGGAAAAAAAGGGUGGGAAAGUAUUAUGUUACGCCGUUCGGAUCUGCACUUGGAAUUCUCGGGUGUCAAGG: 0.858
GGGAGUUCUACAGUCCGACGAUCAAGUCCUGUGCUACACAUCGUAUGUACCGAAUCGGAAAGGUUUUUGGUUUUUUUGGAAAGUAUUAUGUUACGCCGUUCGGAUCUGCACUUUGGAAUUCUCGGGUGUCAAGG: -2.07
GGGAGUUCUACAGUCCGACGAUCGCAGGAAGUAAAAACAAAUGGAAAUGCUUCGGAUAGUGGCAGGGGUGGGGGAUGCUAAGGAAAGGGUGGGAUGGGAGUGGGUAAAGAGUUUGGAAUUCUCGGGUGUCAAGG: 2.12
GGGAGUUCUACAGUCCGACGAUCCCUCAAGUCCUGUGCUACACAUCGUAUGUACCGAAUCGGGGUGGUGGGUGGGGAAAGUAUUAUGUUACGCCGUUCGGAUCUGCACUUCCAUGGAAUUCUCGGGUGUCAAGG: 0.8
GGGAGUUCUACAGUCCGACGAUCCUGUGCUACACAUCGUAUGUACCGAAUCGGGGUUUGGGGAAAAAAAGGGGAAAAAAAGGGGAAAGUAUUAUGUUACGCCGUUCGGAUCUGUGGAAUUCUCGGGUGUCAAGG: 0.00425
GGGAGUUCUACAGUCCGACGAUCUGGCCCUGGUGGCAUGCGGGGAGGAAGAGGUUGCCUCAUGGAUCGUGGUGGUCCCGGUGGAAUGUUCAGAGGUGGCCGUGGUGGAGACAGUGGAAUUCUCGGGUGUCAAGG: 1.96
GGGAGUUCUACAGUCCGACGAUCUGGCCCUGGUGGCAUGCGGGGAGGAAGAGGUGGCCUCAUGGCUCGUGGUGGUCCCGGUGGAAUGUUCAGAGGUGGCCGUGGUGGAGACAGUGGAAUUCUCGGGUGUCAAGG: 1.34
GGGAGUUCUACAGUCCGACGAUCCCCUGUGGGCCUUGCUCAGAGCGGAGAAAGCAUUUGUUUGUACAAGAUCCGCAGACGUGUAAAUGUUCCUGCAAAAACACAGACUCGCGUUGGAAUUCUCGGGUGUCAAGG: -1.53

Series 4
Target: RNA binding protein fox-1 homolog 2, RRM domain, GST-SBP tag (RBFOX2, Homo sapiens, UniProt O43251-10, residues 100-194)
Technique: RNA Bind-n-Seq
Molecule type: RNA
Medium: in vitro
Concentration: 365 nM
Setting: natural RNA segment, single round, ends assumed
Relative to: no-protein control
Direction: higher = stronger binding
Measurement: RBNS enrichment (R)
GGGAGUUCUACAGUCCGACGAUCGAGUCCCGGCUUUUGGAGUCCCAGCACACUUGAACUUGGAUUUGCCAUUCAGUAUUAAUAGAUCAUGAUUUCACUAAUCCAUCACAUUAUAGCACCAUGAGAGCUACAGUUGGAAUUCUCGGGUGCCAA: 0.535
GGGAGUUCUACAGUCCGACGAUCGAAUUACAUUUUCAAAAAAAGGUUUUUAUAAUGAAGUUGUUUAUUAAAAACUUCUGAAUGAUGUGUUGGGAGUUGUGAACCUGUCUGAUUGGGAAACGGUUGGAGAGAGCUGGAAUUCUCGGGUGCCAA: 0.811
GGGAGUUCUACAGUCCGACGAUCCCUGGGACAGGAAAGAGAGGAACCAAUACCUUCAAGGCUCUUCUUCCUCACCGAGCAUGCUUCCCUAGGAUCCCGUCUUCCAGAGAACCUGUGGGCUGACUGCCCUCCGAUGGAAUUCUCGGGUGCCAA: 16.1
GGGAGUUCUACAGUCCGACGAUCAUUUUAUUUGUUUUGUUUAAAGCUACAUGUGCUUUUUUCUGUAAAUAAUAAAUUUUUGUAGAUAGUCUUGAUGUGUUAUCUUUGAUUUCUCUGUGUAAAACCAGCUGGCUUGGAAUUCUCGGGUGCCAA: 0.729
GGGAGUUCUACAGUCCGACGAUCGAAUCAGAUAGUGUGUUGUUUAGGGGUUAAUUGUGUCUAUAUCUUUCAAAAACUUUUAUAUUAUGUAUUAUAAGAAGUUACAGUAGUACCAUUUUGAUUAGUCUGAAUGUUGGAAUUCUCGGGUGCCAA: 0.779
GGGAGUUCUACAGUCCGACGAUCUUUCUAAGAAUAAGAGCUGGCAAAUGGGAAACUUGGGGUGGAGAGAGCAUACUUAUUGGGCUGUGAAGGCAUACGGAUGUACAUGUUUUAGAGCUUAUCUCAGAUUUAAAUGGAAUUCUCGGGUGCCAA: 1.45
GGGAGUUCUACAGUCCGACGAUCCCAGGCCACCAGAGAUGGUUGAGAUAAAUGACAAAUCUGGUGGAAGUCAGACAUGGCUCUAAAGAGCUUCCUAAGAGACUUCCCGAGAGAGAGACAAAAGUGUUUGUUUGUGGAAUUCUCGGGUGCCAA: 0.582
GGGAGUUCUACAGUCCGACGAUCCUUAGAGCCUUCACACGUGAGCACUAGGCCAUCUUAGCAGAACCCCCAUCUGGCAGCACAUGCCAAGUUUCAGGAGGAUUGGGGGGAGGCGGGUGCAGGCUUGAGAAGAAUGGAAUUCUCGGGUGCCAA: 0.848
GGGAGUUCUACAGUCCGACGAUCUUACUGAGGGGGGCUCUUGCUUUAUGCGAUGCUGCCUUAUUUCCUUUAGGGUACUGUCCUGGUCAAAAUGACCUAAGGGGAAACCGUUGUUGUAAACCUCUUUAUUUUGGUGGAAUUCUCGGGUGCCAA: 0.401

Repeated from above (series 2):
CCTAACTACTATAGTCGCATGCCATAGCTTCGTACAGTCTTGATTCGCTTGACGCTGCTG: 512 a.u.
CTATAATGTGTATATAACGTGGTCTTAAATTATTTCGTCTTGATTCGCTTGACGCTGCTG: 997 a.u.
GAAACAACAAGGCATCACCAGCTATAGATAATCTAGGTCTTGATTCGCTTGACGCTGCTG: 511 a.u.
GAAGTCACCTCCAGGTGATTTGCTGTCTTTATGTAGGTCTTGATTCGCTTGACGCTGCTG: 520 a.u.
CCTAACTACTATAATAAGCTGATATAGCTTCGTACAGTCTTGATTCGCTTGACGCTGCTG: 520 a.u.
CTAATGAATCTAATAAACGTGGCTTACGTAACATTCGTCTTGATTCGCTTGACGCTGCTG: 548 a.u.
CTAGTTTTTAATAATTGTGATCACAATATAGCTTTCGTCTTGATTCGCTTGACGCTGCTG: 1020 a.u.
GAAGTGTGGAGGATCCATGTGGTTTCGTTAGCGTAGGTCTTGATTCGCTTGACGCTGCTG: 531 a.u.
